# Published values collected from several papers.
# Each numbered part is a random draw from the data of one study; scales do not carry over between parts. Positions count from the first letter of the parent shown.

# Set 1 — method: universal PBM; molecule type: double-stranded DNA, one strand shown; sample: in vitro; tested at: not given; reading: higher = stronger binding
# Target: Sal-like protein 4, full length isoform B (SALL4, Homo sapiens, UniProt Q9UJQ4-2, residues 1-616)
# Setting: 8-mer, flanks averaged, mean of replicates
Oligonucleotide,E-score
CTACATGC,0.135
ATCGAAAG,0.0871
CAGCTGGC,-0.263
AAATGGGG,-0.0959
AAATTAAT,0.443
GAATCAAC,0.0937
AGGACCTG,-0.237
GCGCGACA,-0.215
ACGAGCGT,-0.125
ACGCTGAA,-0.0956
AAATAGGT,0.186
CTAACCTC,0.0653
AAAGCAGC,-0.151
ACATTAAG,0.264
GTGTTACA,0.212
CCGATCAG,-0.196
CGCCGCAG,-0.382
CGCCAACG,-0.314

# Set 2 — method: competition protein-binding microarray; molecule type: double-stranded DNA, one strand shown; sample: in vitro; tested at: 2 µM; with: Cbf1 competitor, 0.05 µM; reading: higher = stronger binding
# Target: Phosphate system positive regulatory protein PHO4, full length, GST-tagged (PHO4, Saccharomyces cerevisiae, UniProt P07270, residues 1-312)
# Setting: whole 60-bp probe, lowest competitor level
# Construct (chain): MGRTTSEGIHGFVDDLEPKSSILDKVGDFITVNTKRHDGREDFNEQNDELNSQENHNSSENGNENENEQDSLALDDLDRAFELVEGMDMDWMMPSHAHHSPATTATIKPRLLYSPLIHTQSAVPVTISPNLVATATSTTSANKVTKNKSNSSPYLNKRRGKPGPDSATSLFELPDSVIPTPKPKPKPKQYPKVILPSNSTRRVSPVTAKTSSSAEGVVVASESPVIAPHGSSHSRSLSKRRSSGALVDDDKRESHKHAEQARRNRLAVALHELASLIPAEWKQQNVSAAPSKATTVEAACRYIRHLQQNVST
Oligonucleotide,fluorescence intensity [a.u.]
CATATGTTTTAGCTGATTATAATTCTTCGATCGATGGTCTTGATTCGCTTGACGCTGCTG,3810
CTTCTGTAAATTTTTCACGTGAGCTGAGGCGCCCCGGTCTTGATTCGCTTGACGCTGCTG,8590
CGGGGTTAAGTTTGTTGGGTGGGTGGCTTGCAGCAGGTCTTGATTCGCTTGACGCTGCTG,4640
GGGCACAAGGAAAAACACGTGACGAATTTCTTTTTTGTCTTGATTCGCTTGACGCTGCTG,14800
ACCCAGTTCACAAGCACCGTGAAGCTAGAGGTTTGAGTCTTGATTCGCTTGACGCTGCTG,4260
CAGTTTTCCGCAAAGCACGTTTAACTGGGCAGGGATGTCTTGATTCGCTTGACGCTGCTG,10500
CGGGGTTAAGTTTGTCACTGAACTTGCTTGCAGCAGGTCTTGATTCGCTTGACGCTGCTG,3580
TGCGCAACAACTTGTGGGGTGGGTGTATGTCTAGAAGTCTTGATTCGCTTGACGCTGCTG,5970
CGCCCTTCCTTACGGTAGATGATGACACACTAAACGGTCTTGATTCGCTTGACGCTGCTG,3560
CTTTCCCGATCTTGTAACGTGGGTGTAGCACATTTGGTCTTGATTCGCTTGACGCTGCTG,10900
ATTTACGGTTAGTCCCACGCTATAACCCGCCGTTGTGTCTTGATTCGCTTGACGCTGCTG,6610
GACACTTTTACATACGGCGTGCGATGCTGGTATCCTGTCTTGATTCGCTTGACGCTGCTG,9420
TGCTACGCGTAGTGCAGCGTGACGGCGGGCTAAAAAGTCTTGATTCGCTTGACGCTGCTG,5150
CAATTTGTGGTCTTCGTCGTGCTTTGTGGGTTTAGCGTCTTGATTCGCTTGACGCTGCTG,7190
CATACCCAACCTTGCACTGTGGGTGAAGATATTTGTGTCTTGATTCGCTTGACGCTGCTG,4570
GGAGCGTATTGTAACCAGATTTCCTTGGGCCAGAAGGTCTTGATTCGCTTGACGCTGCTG,3000
ATTTTGCACTTCCGTCACATGCAATCGAGGCAAAAAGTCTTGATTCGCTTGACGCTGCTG,7740
CAAAAATTAGAAATCAACGTGACGGTCTAGGGCTACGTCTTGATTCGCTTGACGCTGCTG,10400
CGTCCTAGTGATTGCCCCGTGGGTGCCATGAGGAAGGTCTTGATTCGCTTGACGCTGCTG,11200
CATACCCAACCTTGAGTGGTGGGTGAAGATATTTGTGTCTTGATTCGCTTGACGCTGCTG,4460

# Set 3 — method: RNAcompete; molecule type: RNA; sample: in vitro; tested at: 20 nM; setting: 7-mer, probes averaged, single round; reference: mean of 7-mers; reading: higher = stronger binding
# Target: PABPC1L2, full length, GST fusion (mouse, UniProt A0ABA7IW68)
# Residues (chain): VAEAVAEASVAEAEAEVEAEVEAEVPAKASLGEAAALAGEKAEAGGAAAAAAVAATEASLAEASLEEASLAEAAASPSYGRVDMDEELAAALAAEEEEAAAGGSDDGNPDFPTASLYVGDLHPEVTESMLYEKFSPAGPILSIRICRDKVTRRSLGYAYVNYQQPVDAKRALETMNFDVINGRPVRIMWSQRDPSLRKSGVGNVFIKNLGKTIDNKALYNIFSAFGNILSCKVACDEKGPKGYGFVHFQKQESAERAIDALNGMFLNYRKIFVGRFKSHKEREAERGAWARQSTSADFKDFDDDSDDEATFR
Oligonucleotide,7-mer Z-score
CAGGUCG,-0.106
AAUACAU,0.372
CUGUCCC,-0.273
GCCCAGA,-0.0899
UAUGGGG,0.187
AGACGUG,-0.204
CUCGACU,-0.293
UAUGCCG,-0.258
UUAGCCA,-0.117
CGUGACC,-0.255
UGACCCA,-0.121
CCGUCCA,-0.351
CUAGCGU,-0.3
UUGAUCU,-0.34
CGGAAGA,0.164
AACUGUU,-0.215
GCUUGCG,-0.175

# Set 4 — target: BATF3, bZIP domain (human); method: DHFR protein complementation; sample: yeast; reference: wild-type JUN-FOS pair; reading: higher = stronger binding
# Setting: single substitutions, most at no-binding floor
# Starting sequence: JUN, bZIP domain (human); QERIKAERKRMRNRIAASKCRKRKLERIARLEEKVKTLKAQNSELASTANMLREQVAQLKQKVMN; partner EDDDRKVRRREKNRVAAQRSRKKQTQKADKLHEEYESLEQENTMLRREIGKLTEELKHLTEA
Change,binding fitness [natural log]
S43C,0.229
R30A,0.379
T48P,-1.01
E32L,0.153
K39W,0.00632
L45M,0.211
R30E,0.314
A40C,0.163
K34C,0.215
N42S,-0.191
L45F,0.0204
R30W,0.233
Q55W,-0.021
Q55I,0.0174
K36H,0.201
L52I,0.0789
S47C,0.212
N42D,-1
M51N,0.276

# Set 5 — method: RNA Bind-n-Seq; molecule type: RNA; sample: in vitro; tested at: 365 nM; reference: no-protein control; reading: higher = stronger binding
# Target: RNA binding protein fox-1 homolog 2, RRM domain, GST-SBP tag (RBFOX2, Homo sapiens, UniProt O43251-10, residues 100-194)
# Setting: natural RNA segment, single round, ends assumed
# Construct (chain): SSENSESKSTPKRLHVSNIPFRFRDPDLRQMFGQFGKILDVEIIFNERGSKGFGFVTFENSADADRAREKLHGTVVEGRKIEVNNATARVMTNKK
Oligonucleotide,RBNS enrichment (R)
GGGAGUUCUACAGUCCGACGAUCACCCUCUUUAUGAAGUGAAUUACCAAUGCUUUGAAUAAUGUUCACUUAUACAUUCCUGUACAGAAAUUACGAUUUUGUGAUUACAGUAAUAAAAUGAUAUUCCUUGUGAAUGGAAUUCUCGGGUGCCAA,0.585
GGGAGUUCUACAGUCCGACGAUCAGUAGACAGAAGAGGAAGAAAGAACAGAUGUUCACAGCUGAAUCUCAGUGAACAGAAUAGCAGUCCCUGGAUGGCAGUCUGCCUAAAGAUUCCUUUCCCUGCCUUCUCCCUGGAAUUCUCGGGUGCCAA,0.353
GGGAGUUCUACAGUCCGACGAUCACUUGGAACCAACCCAAAUGUCCAACAAUGAUAGACUGGAUUAAGAAAACGUGGCACAUAUACACCAUGGAAUACUAUGCAGCCAUAAAAAAUGAUGAGUUCAUGUCCUUUGGAAUUCUCGGGUGCCAA,0.347
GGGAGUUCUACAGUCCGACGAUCGCAGGGACCUGGAGAGGCCAACAGCCACUGCUACCUUUGUAGUCUUCAAAAUAUUGAACUGCAGGUCCCAAGAUGCAUUUCAGGAUUUAAGACAGGUGCACUAAUGAUAAUGGAAUUCUCGGGUGCCAA,0.577
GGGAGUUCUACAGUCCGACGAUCAAUAUUGGAAGCUGUGUGUAAGAUUGAUUCAGCAUUCCAUGCACUUGCUUUAAAAUUUAGUCCUGUGCAUACUGUGGUGUUUUUACUGUGCAUAUUUGAAUUUUUCAUGCUGGAAUUCUCGGGUGCCAA,0.738
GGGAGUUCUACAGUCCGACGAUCCAUUCUUAAGUGUACUUGUUUAUAAGGAAUAACAUAAACUAAUCUGUACCUUUAUAUAUAUGUGUGUGUACAUAUAUACAUAUAUAAACUGUAUAGUGUACAUGGUAAUGUGGAAUUCUCGGGUGCCAA,0.288
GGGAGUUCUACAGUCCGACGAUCUAGUUUGUUUCCUUGUUUGAGAGGUGUGCAUGCGACCGUGGCUUUUCCCAAAGUUUCUGACUUUGUGGUUUACCCCCUUCACCUUCCAGGGACGCAGUUGUUACGAGGUUUGGAAUUCUCGGGUGCCAA,14.2
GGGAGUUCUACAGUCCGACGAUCAGGUCUGCCCACCCAGCUGAUCUCGGAGUCCUGGCCCCAGUCCAUGUGUAGCUCUAAGAACAUGAAGUAGCUGGUUGCAAGAUGGACCAACUCACCAAGUGUCAGCCCAGUGGAAUUCUCGGGUGCCAA,0.845
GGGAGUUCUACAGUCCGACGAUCAUUAAGUAAGCAUUUUGCACAUGGGCACCCCAGUGUCCCGCUGGCCCAGCAGGAGUCACUGUUGGCCUCUGGACACUCAUCGGCCUUGGGCAAGUGGUUCUCAGCCAGGUUGGAAUUCUCGGGUGCCAA,0.921
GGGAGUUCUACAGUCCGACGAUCAGAGAAUUACUGAGUUCCUCUCAGGACCCCUGAAGAAGCUAUAAGUCAGUACCAGUAGCUUCAGGGUCUGUCGUAGGAGCGAGGACAACUGUAAACACAGGGUCCGCUGAUGGAAUUCUCGGGUGCCAA,0.268
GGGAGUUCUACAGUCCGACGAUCAAAGCAAGAAAUACAAAUAUCAGCAGACAGAAUAUAGUGAUCCCAUAGUAAUACACAUCUGCCUUUGUCUCUUCACUCAGAGUCAACUGAAAAAUUGCAGGCCAAAACCUUGGAAUUCUCGGGUGCCAA,0.599
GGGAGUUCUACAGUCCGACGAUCCUUGUGCUAGGAACACACCCUGCCCUCACUGCCCCACCUCCUGGGGCCCCACCGCCAUCGUCAGUCAAAUCAGUGCACCUCUCAAUCUGCCUCGCAGUGACUUCGCAGCAUGGAAUUCUCGGGUGCCAA,0.697

# A few entries again (set 1):
Oligonucleotide,E-score
CGCCAACG,-0.314
ACGCTGAA,-0.0956
AAATAGGT,0.186
CTACATGC,0.135
ATCGAAAG,0.0871
ACGAGCGT,-0.125
